Measured values from different studies.
Compare with care: the assays were run in different laboratories. “And” joins repeats or separate records; there may be more than shown. ± marks the error that the study gave.
ADRA2C: Alpha-2C adrenergic receptor (ADRA2C, Homo sapiens, UniProt P18825)
UCHL1: Ubiquitin carboxyl-terminal hydrolase isozyme L1 (UCHL1, Homo sapiens, UniProt P09936)
Voltage-dependent P/Q-type calcium channel subunit alpha-1A: Voltage-dependent P/Q-type calcium channel subunit alpha-1A (Homo sapiens, UniProt O00555)
TOP2B: DNA topoisomerase 2-beta (TOP2B, Homo sapiens, UniProt Q02880)
BEST1: BEST1 (Homo sapiens, UniProt O76090)
T1: RNA aptamer C48U, 5'-triphosphate, 2',3'-cyclic phosphate; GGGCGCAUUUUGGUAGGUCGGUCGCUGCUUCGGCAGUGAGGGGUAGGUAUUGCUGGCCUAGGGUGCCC

c1ccc(C(NCc2cccnc2)(c2ccccc2)c2ccccc2)cc1 — result for “slope of normalized current vs voltage”: 2 V⁻¹ (Potassium voltage-gated channel subfamily KQT member 1 (KCNQ1, Homo sapiens, UniProt P51787); 100 pM, end-pulse currents above -10 mV).
Cc1cc(Oc2ncccc2CN2CCN(c3cccc(Cl)c3Cl)CC2)ccc1-c1c(C)c(=O)[nH]c(=O)n1C has a selectivity ratio of 10 (ADRA2C; binding, radioligand binding; added: [3H]rauwolscine; baseline: Ki alpha2A over Ki alpha2C).
Nc1ncnc2c1ncn2[C@@H]1O[C@H](COP(=O)(O)CP(=O)(O)OP(=O)(O)O)[C@@H](O)[C@H]1O has a specific binding of 49 CCPM and 69.5 CCPM (P2X purinoceptor 1 (P2RX1, Homo sapiens, UniProt P51575, R292A); saturation binding; HEK293; 25 nM).
For C=CC(=O)N1CCC(COCC(=O)N2CCN(c3nc(-c4cnc(N)nc4C(F)F)nc(N4CCOC[C@@H]4C)n3)CC2)CC1, the remaining binding was 87% (Serine/threonine-protein kinase 32A (STK32A, Homo sapiens, UniProt Q8WU08); KINOMEscan; 1 µM).
The inhibition of CCCCCCCCCCCCCCCCOP(=O)([O-])OCC[N+](C)(C)C is reported as -7.2% (Trypanosoma cruzi; reporter translation, Renilla luciferase mRNA translation; cell-free extract; 40 µM; baseline: DMSO).
N#CC(=Cc1cccc(O)c1)C(=O)NCCc1ccccc1 has a labelling of 15.5% (UCHL1; covalent, intact protein LC-MS; 12.5 µM).
CNCC[C@H](Oc1cccc2ccccc12)c1cccs1 gave an inhibition of 31% (Voltage-dependent P/Q-type calcium channel subunit alpha-1A; ion current, antagonist; HEK293; 30 µM).
COCCNC(=O)C(C#N)=Cc1c(F)cccc1Cl has a labelling of 16.6% (UCHL1; covalent, intact protein LC-MS; 12.5 µM).
Nc1nc2c(ncn2[C@@H]2O[C@H](COP(=O)(O)OP(=O)(O)OP(=O)(O)O)[C@@H](O)[C@H]2O)c(=O)[nH]1 has a Kd of 352 nM (T1, RNA aptamer C48U, 5'-triphosphate, 2',3'-cyclic phosphate; ITC).
With CC1CC(C(=O)O)N1C(=O)CCCCc1nc2ccccc2s1 (centres unmarked) the remaining activity was 96% (malate dehydrogenase; enzyme activity, inhibitor; 200 µM, pH 7.0, 1% DMSO, aggregation counter-screen).
The labelling of N#CC(=Cc1ccccc1)C(=O)Nc1ccc(N2CCCCC2)cc1 is reported as 10.2% (UCHL1; covalent, intact protein LC-MS; 12.5 µM).
Cc1ncsc1-c1ccc(CNC(=O)[C@@H]2C[C@H](O)CN2C(=O)[C@@H](NC(=O)C2(F)CC2)C(C)(C)C)c(OCCc2ccc(CN3CCN(c4cc(-c5ccccc5O)nnc4N)CC3)cc2)c1: “cooperativity factor alpha” 1.3 (SMARCA2 bromodomain, human; ternary complex binding, TR-FRET competition; added: VCB R69A mutant).
CCN(CCO)CCCC(C)Nc1ccnc2cc(Cl)ccc12 (centres unmarked) — result for “half-inactivation voltage (V1/2)”: -89.1 mV and -80 mV and -95.8 mV (Sodium channel protein type 5 subunit alpha (SCN5A, Homo sapiens, UniProt Q14524); sodium current, whole-cell patch clamp; 100 µM, without ATX-II).
CC(C)COc1ccc(CNC(=O)N(Cc2ccc(F)cc2)C2CCN(C)CC2)cc1 gave an IC30 of 561 nM (Voltage-dependent P/Q-type calcium channel subunit alpha-1A; ion current, antagonist, automated patch clamp).
C#CCCC1(CC[C@H](NC(=O)NCCCCCCNC(=O)NCCNC(=O)COc2cccc([C@@H](CCc3ccc(OC)c(OC)c3)OC(=O)[C@@H]3CCCCN3C(=O)C(=O)C(C)(C)CC)c2)C(N)=O)N=N1.O=C(O)C(F)(F)F: “probe labeling fluorescence” 51900 a.u. (Peptidyl-prolyl cis-trans isomerase FKBP1A (FKBP1A, Homo sapiens, UniProt P62942); photoaffinity labeling, in-gel fluorescence, measured: Alexa Fluor 647 click label; 10 µM, UV irradiation 365 nm; higher = more labeling).
CN(C)C(=O)C(CCN1CCC(O)(c2ccc(Cl)cc2)CC1)(c1ccccc1)c1ccccc1 — result for “effective gating valence”: 1.38 ± 0.2 elementary charges (Calcium-activated potassium channel subunit alpha-1, with LRRC26 γ1 subunit (KCNMA1, Homo sapiens, UniProt Q12791); BK current, inside-out patch clamp; excised membrane patch; 1 µM, γ1 coexpressed, individual fits, added: nominally 0 Ca2+ cytosolic).
For Cc1ccc(C(=O)c2c(NC(=O)c3ccncc3)sc3c2CCCC3)cc1, the inhibition was -8.9% (Trypanosoma cruzi; reporter translation, Renilla luciferase mRNA translation; cell-free extract; 40 µM; baseline: DMSO).
N#CC(=Cc1ccc(Cl)c([N+](=O)[O-])c1)C(=O)NCc1ccco1 gave a labelling of 17% (UCHL1; covalent, intact protein LC-MS; 12.5 µM).
COc1cc(/C=C/c2ccc(O)cc2)cc(OC)c1 has a cooperativity factor of 0.41 (O-methyltransferase (Sorghum bicolor, UniProt A0A1B6PFV1); ITC one-site model; added: sinefungin).
CCCCCCCCC(=O)c1cc(O)c(O)c(O)c1 has an activation of 2.56 fold (Nuclear receptor subfamily 1 group I member 3 (Homo sapiens, UniProt Q14994); reporter gene, Gal4 hybrid reporter; 10 µM; baseline: vehicle).
With O=c1nc(SCc2cc(F)cc(C(F)(F)F)c2)nc(SCc2ccc3nc(Cl)ccc3c2)[nH]1 the decatenated DNA was 83.8% (TOP2B; decatenation; 7.8 µM, replicate 1).
COc1ccc(Cl)cc1N1CCN(Cc2cccnc2Oc2ccc(-c3c(C)c(=O)[nH]c(=O)n3C)c(C)c2)CC1 has a selectivity ratio of 1 (ADRA2C; binding, radioligand binding; added: [3H]rauwolscine; baseline: Ki alpha2A over Ki alpha2C).
With CC(Cc1ccc(NS(=O)(=O)c2cc(Cl)cc(Cl)c2O)cc1)C(=O)O (centres unmarked) the remaining activity was 99% (malate dehydrogenase; enzyme activity, inhibitor; 200 µM, pH 7.0, 1% DMSO, aggregation counter-screen).
With Cc1cc(Oc2ncccc2CN2CCN(c3ccccc3)CC2)ccc1-c1c(C)c(=O)[nH]c(=O)n1C the selectivity ratio was 5 (ADRA2C; binding, radioligand binding; added: [3H]rauwolscine; baseline: Ki alpha2A over Ki alpha2C).
With CSC1=C(C#N)C2(CCCCC2)C(C#N)=C(NC(=O)CCl)N1 the labelling was 16.6% (UCHL1; covalent, intact protein LC-MS; 12.5 µM).
COC(=O)[C@H](CCSC(F)(F)F)NS(=O)(=O)c1cccc(Cl)c1O gave a remaining activity of 75% (malate dehydrogenase; enzyme activity, inhibitor; 200 µM, pH 7.0, 1% DMSO, aggregation counter-screen).
CNC(=O)[C@H](CNC(=O)c1cccc(COc2ccccc2C(N)=O)c1)NC(=O)COc1cc(C)cc2oc(=O)c3c(c12)CCC3 has a ligand efficiency of 0.31 (Poly [ADP-ribose] polymerase tankyrase-1 (TNKS, Homo sapiens, UniProt O95271); enzyme activity, inhibitor).
Under “binding free energy”, CC(=O)N[C@@H](Cc1ccccc1)C(=O)N1CCC[C@H]1C(=O)N1CCC[C@H]1C(=O)N1CCC[C@H]1C(=O)N1CCC[C@H]1C(=O)O is recorded as -4.23 kcal/mol (Vasodilator-stimulated phosphoprotein, EVH1 domain (VASP, Homo sapiens, UniProt P50552); fluorescence titration; 25 °C).
The activation of COc1cccc2c(Nc3ccc4[nH]c(C(=O)N/N=C/c5ccc(SC)cc5)cc4c3)cc(C)nc12 is reported as 1 fold (Hepatocyte nuclear factor 4-alpha (HNF4A, Homo sapiens, UniProt P41235); reporter gene, Gal4 hybrid reporter; 3 µM; baseline: vehicle).
For O=C(O)c1cccc(C(=O)O)n1, the kon was 1170 ± 500 M⁻¹ s⁻¹ (Beta-lactamase L1 (Stenotrophomonas maltophilia, UniProt P52700); enzyme activity, inhibitor; added: nitrocefin).
For O=C(NCCF)c1cncn1-c1ccc(-c2ccc(F)c(F)c2)cc1, the labelling was 13.1% (UCHL1; covalent, intact protein LC-MS; 12.5 µM).
The normalized current of Nc1ncnc2c1ncn2[C@@H]1O[C@H](COP(=O)(O)OP(=O)(O)OP(=O)(O)O)[C@@H](O)[C@H]1O is reported as 0 (P2X purinoceptor 7 (P2rx7, Rattus norvegicus, UniProt Q64663, Q143A/R125A); ion current, agonist, two-electrode voltage clamp; Xenopus laevis oocytes; 2 µM; baseline: highest concentration response).
Under “mean decatenated DNA”, O=c1nc(SCc2cc(F)cc(C(F)(F)F)c2)nc(SCc2ccc3sccc3c2)[nH]1 is recorded as 0% (TOP2B; decatenation; 125 µM).
For C[C@H]1O[C@H](O[C@H]2[C@H](O)[C@@H](O)[C@@H](O[C@H]3[C@H](O)[C@@H](O)C(O)O[C@@H]3CO)O[C@@H]2CO)[C@H](O)[C@@H](O)[C@@H]1N[C@H]1C=C(CO)[C@@H](O)[C@H](O)[C@H]1O (some centres unmarked), the band share was 100% (α-amylase isoenzymes; native PAGE densitometry, measured: abnormal band; equal to IC50).
For CC[C@@H]1[C@H](F)C(=O)N[C@@H]1COc1nccc2cc(C(N)=O)c(OC)cc12, the inhibition was 2.6% (Serine/threonine-protein kinase 38-like (STK38L, Homo sapiens, UniProt Q9Y2H1); ATP-site probe binding, ActivX profiling; THP-1 cell lysate; 0.01 mM, Lys2 site).
For O=C(O)c1ccc(O)cc1, the current density was 18.3 pA/pF and 15.6 pA/pF and 13 pA/pF and 21.3 pA/pF and 13.1 pA/pF and 28.5 pA/pF and 10.3 pA/pF (BEST1; whole-cell patch clamp; HEK293 transiently expressing channel; concentration not given, membrane potential 40 mV).
CN1CCN(c2cc(-c3ccncc3)c(-c3ccc4ccccc4c3)nn2)CC1 gave an activation of -1.7% (Melanocortin receptor 4 (MC4R, Homo sapiens, UniProt P32245); agonist, FLIPR; 12.5 µM).
The labelling of CC#CC(=O)N(Cc1ccccc1OC)C1CCN(C(C)=O)CC1 is reported as 9.51% (UCHL1; covalent, intact protein LC-MS; 12.5 µM).
The current density of O=C(O)C1=CCNCC1 is reported as -8.84 pA/pF and -9.82 pA/pF and -11.2 pA/pF and -28.6 pA/pF and -52.9 pA/pF and -22.4 pA/pF (BEST1; whole-cell patch clamp; HEK293 transiently expressing channel; concentration not given, membrane potential -40 mV).
The luminescence of Cc1c(C(=O)Nc2ccccc2C(=O)O)oc2c1C(O)CC(C)(C)C2 (centres unmarked) is reported as 63000 a.u. (Beta-1,4-galactosyltransferase 1 (B4GALT1, Homo sapiens, UniProt P15291); enzyme activity, inhibitor, UDP-Glo; 10 µM; lower means stronger inhibition).
Nc1nc(SCc2ccc(Cl)cc2)nn1S(=O)(=O)c1ccc([N+](=O)[O-])cc1: “probe labeling increase” 2.4 fold (Lysophospholipase-like protein 1 (Mus musculus, UniProt Q3UFF7); enzyme activity, activator, gel-based ABPP; purified protein; concentration not given, added: FP-rhodamine; baseline: DMSO).
The enzyme activity of O=C(COP(=O)(O)O)[C@@H](O)[C@H](O)[C@H](O)COP(=O)(O)O is reported as 0.752 and 1.27 and 1.14 (Phosphoglycerate mutase 1 (Homo sapiens, UniProt P18669); activator; 0.01953 mM, wild-type enzyme, unit not given; relative to no compound).
The inhibition of Nc1c(Br)cc(Br)cc1CN[C@H]1CC[C@H](O)CC1 is reported as 59% (Voltage-dependent P/Q-type calcium channel subunit alpha-1A; ion current, antagonist; HEK293; 30 µM).
Under “normalised MST signal”, O=C(O)C1CCCNC1 (centres unmarked) is recorded as -0.00497 (Sodium- and chloride-dependent taurine transporter (SLC6A6, Homo sapiens, UniProt P31641, Y138A); binding, microscale thermophoresis; 61 nM, room temperature, added: 50 nM labelled protein; higher = more binding).

Excerpt of the above:
Cc1cc(Oc2ncccc2CN2CCN(c3cccc(Cl)c3Cl)CC2)ccc1-c1c(C)c(=O)[nH]c(=O)n1C has a selectivity ratio of 10 (ADRA2C; binding, radioligand binding; added: [3H]rauwolscine; baseline: Ki alpha2A over Ki alpha2C).
Nc1ncnc2c1ncn2[C@@H]1O[C@H](COP(=O)(O)CP(=O)(O)OP(=O)(O)O)[C@@H](O)[C@H]1O has a specific binding of 49 CCPM and 69.5 CCPM (P2X purinoceptor 1 (P2RX1, Homo sapiens, UniProt P51575, R292A); saturation binding; HEK293; 25 nM).
For C=CC(=O)N1CCC(COCC(=O)N2CCN(c3nc(-c4cnc(N)nc4C(F)F)nc(N4CCOC[C@@H]4C)n3)CC2)CC1, the remaining binding was 87% (Serine/threonine-protein kinase 32A (STK32A, Homo sapiens, UniProt Q8WU08); KINOMEscan; 1 µM).
The inhibition of CCCCCCCCCCCCCCCCOP(=O)([O-])OCC[N+](C)(C)C is reported as -7.2% (Trypanosoma cruzi; reporter translation, Renilla luciferase mRNA translation; cell-free extract; 40 µM; baseline: DMSO).
N#CC(=Cc1cccc(O)c1)C(=O)NCCc1ccccc1 has a labelling of 15.5% (UCHL1; covalent, intact protein LC-MS; 12.5 µM).
CNCC[C@H](Oc1cccc2ccccc12)c1cccs1 gave an inhibition of 31% (Voltage-dependent P/Q-type calcium channel subunit alpha-1A; ion current, antagonist; HEK293; 30 µM).
COCCNC(=O)C(C#N)=Cc1c(F)cccc1Cl has a labelling of 16.6% (UCHL1; covalent, intact protein LC-MS; 12.5 µM).
